Values quoted from earlier work that unrelated publications cite.
Each line is one published result; not all experiments were run side by side. Numbers after ± are the reported error.
CYP3A4: Cytochrome P450 3A4 (CYP3A4, Homo sapiens, UniProt P08684)
UniProt P08684, sequence (whole entry, looked up): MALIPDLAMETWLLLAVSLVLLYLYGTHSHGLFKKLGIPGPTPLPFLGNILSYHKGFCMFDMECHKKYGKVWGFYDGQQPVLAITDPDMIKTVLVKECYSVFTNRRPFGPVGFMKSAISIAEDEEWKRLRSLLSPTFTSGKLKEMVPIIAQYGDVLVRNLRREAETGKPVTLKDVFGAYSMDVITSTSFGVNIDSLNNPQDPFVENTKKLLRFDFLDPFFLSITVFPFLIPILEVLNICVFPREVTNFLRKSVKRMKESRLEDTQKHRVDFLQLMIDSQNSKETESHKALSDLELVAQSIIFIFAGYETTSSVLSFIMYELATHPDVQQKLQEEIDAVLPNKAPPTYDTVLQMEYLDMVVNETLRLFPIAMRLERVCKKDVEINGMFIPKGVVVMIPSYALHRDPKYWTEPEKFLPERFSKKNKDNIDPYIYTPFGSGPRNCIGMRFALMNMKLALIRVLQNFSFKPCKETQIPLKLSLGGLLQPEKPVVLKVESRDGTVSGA
UniProt Q9NPD5, sequence (whole entry, looked up): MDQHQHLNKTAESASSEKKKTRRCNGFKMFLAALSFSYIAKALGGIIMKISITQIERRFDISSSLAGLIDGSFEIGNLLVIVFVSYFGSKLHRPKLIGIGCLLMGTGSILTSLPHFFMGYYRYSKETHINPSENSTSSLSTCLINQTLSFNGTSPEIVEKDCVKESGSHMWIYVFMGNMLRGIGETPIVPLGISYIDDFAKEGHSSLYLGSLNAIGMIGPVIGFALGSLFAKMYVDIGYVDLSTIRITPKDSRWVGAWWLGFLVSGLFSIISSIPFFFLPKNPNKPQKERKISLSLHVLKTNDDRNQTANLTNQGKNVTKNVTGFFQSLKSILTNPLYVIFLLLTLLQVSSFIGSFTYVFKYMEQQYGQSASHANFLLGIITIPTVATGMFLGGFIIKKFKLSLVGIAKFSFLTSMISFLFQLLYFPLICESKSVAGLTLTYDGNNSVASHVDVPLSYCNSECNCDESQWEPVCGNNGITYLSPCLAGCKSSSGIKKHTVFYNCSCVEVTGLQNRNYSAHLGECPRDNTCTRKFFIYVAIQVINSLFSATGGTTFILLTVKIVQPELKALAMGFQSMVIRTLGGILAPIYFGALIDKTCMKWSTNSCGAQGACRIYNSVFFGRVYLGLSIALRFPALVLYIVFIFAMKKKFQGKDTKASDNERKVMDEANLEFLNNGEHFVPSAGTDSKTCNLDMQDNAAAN

Structure (SMILES) | target | assay | test system | setting | how to read | measurement | value
CO[C@H]1/C=C/O[C@@]2(C)Oc3c(C)c(O)c4c(O)c(c(/C=N/N5CCN(C)CC5)c(O)c4c3C2=O)NC(=O)/C(C)=C\C=C\[C@H](C)[C@H](O)[C@@H](C)[C@@H](O)[C@@H](C)[C@H](OC(C)=O)[C@@H]1C | OATP1B |  |  | in vivo, unbound fraction corrected |  | Ki | 3.29 µM
O=C(Nc1nc2cccc(-c3ccc(CN4CCS(=O)(=O)CC4)cc3)n2n1)C1CC1 | OATP1B3 | inhibitor |  |  |  | IC50 | > 285 µM
C[C@@H](O)CCCCn1c(=O)c2c(ncn2C)n(C)c1=O | low Km non-CYP enzyme | substrate, item: pentoxifylline formation | human liver microsomes | biphasic kinetics |  | Km | 0.282 µM
CC(O)C(C)n1ncn(-c2ccc(N3CCN(c4ccc(OCC5COC(Cn6cncn6)(c6ccc(Cl)cc6Cl)O5)cc4)CC3)cc2)c1=O (centres unmarked) | CYP3A4 | competitive inhibitor |  |  | unbound | Ki | 0.0144 µM
CN(C)C(=O)CCSC(SCCC(=O)O)c1cccc(/C=C/c2ccc3ccc(Cl)cc3n2)c1 (centres unmarked) | MRP2 | CDF transport, inhibitor | Sf9 membrane vesicles |  |  | Ki | < 10 µM
C[C@]12CC[C@@H]3c4ccc(O)cc4CC[C@H]3[C@@H]1CC[C@@H]2O[C@@H]1O[C@H](C(=O)O)[C@@H](O)[C@H](O)[C@H]1O | SLCO1B3 (Homo sapiens, UniProt Q9NPD5) |  |  |  |  | Ki | 24.6 µM
CC(=O)C(C)n1ncn(-c2ccc(N3CCN(c4ccc(OC[C@H]5CO[C@](Cn6cncn6)(c6ccc(Cl)cc6Cl)O5)cc4)CC3)cc2)c1=O (some centres unmarked) | CYP3A4 | competitive inhibitor |  |  | unbound | Ki | 0.014 µM
CC(O)c1cc(C(=O)N[C@@H](C)Cn2ccc(-c3ccc(C#N)c(Cl)c3)n2)[nH]n1 (some centres unmarked) | UGT enzymes |  |  | glucuronidation |  | fraction of clearance | ~30%
C[C@@H](c1nc(-c2ccc(C#N)cc2)cs1)[C@](O)(Cn1cncn1)c1cc(F)ccc1F | CYP2C19 | enzyme activity, inhibitor |  | added: S-mephenytoin 4'-hydroxylation |  | IC50 | 5.4 µM
Cc1c(O)cccc1C(=O)N[C@@H](CSc1ccccc1)[C@H](O)CN1C[C@H]2CCCC[C@H]2C[C@H]1C(=O)NC(C)(C)C | Multidrug resistance protein 1a (Rattus norvegicus, UniProt Q6PSM0) |  | rat | corrected for vascular drug, added: zosuquidar | reference: without zosuquidar | brain uptake ratio | ≤ 80 fold
O=C1CC[C@@]2(O)[C@H]3Cc4ccc(O)c5c4[C@@]2(CCN3CC2CC2)[C@H]1O5 | UGT2B7 (human) | glucuronidation, substrate |  |  |  | Km | 50 to 200 µM
CN(C/C=C/C#CC(C)(C)C)Cc1cccc2ccccc12 | CYP2C19 | substrate, item: dihydrodiol formation |  |  |  | Km | 110 ± 63 µM
C[C@@H](c1nc(-c2ccc(C#N)cc2)cs1)[C@](O)(Cn1cncn1)c1cc(F)ccc1F | OCT1 | substrate transport |  | added: [14C]tetraethylammonium |  | Ki | 1.74 µM
Cc1c(C(=O)Nc2ccc(S(C)(=O)=O)cc2)cn(CCO)c1-c1ccccc1C(F)(F)F | CYP3A | urinary and faecal metabolite excretion |  |  |  | CYP3A contribution to clearance | ~30%
Fc1ccc([C@@H]2CCNC[C@H]2COc2ccc3c(c2)OCO3)cc1 | CYP2D6 human | enzyme activity, inactivator |  | 20 to 30 mg once daily, steady-state blood concentrations |  | inhibition | 93%
CONC(=N)c1ccc(-c2ccc(-c3ccc(C(=N)NOC)cc3)o2)cc1 | CYP4F, recombinant | item: M1 formation |  |  | reference: CYP4F over CYP3A | intrinsic clearance ratio | ≥ 30 fold
CC(=O)C[C@@H](c1ccccc1)c1c(O)c2ccccc2oc1=O | CYP2C9 | substrate | healthy subjects, fed | oral, 10 mg, added: simeprevir 150 mg | reference: with over without simeprevir | AUClast ratio | 1.04

A few entries again:
Structure (SMILES) | target | assay | test system | setting | how to read | measurement | value
O=C1CC[C@@]2(O)[C@H]3Cc4ccc(O)c5c4[C@@]2(CCN3CC2CC2)[C@H]1O5 | UGT2B7 (human) | glucuronidation, substrate |  |  |  | Km | 50 to 200 µM
